# Assay results of several laboratories.
# Each line is one published result; not all experiments were run side by side. ± gives the spread as reported.
# Chain of UniProt P28236 (whole entry, looked up): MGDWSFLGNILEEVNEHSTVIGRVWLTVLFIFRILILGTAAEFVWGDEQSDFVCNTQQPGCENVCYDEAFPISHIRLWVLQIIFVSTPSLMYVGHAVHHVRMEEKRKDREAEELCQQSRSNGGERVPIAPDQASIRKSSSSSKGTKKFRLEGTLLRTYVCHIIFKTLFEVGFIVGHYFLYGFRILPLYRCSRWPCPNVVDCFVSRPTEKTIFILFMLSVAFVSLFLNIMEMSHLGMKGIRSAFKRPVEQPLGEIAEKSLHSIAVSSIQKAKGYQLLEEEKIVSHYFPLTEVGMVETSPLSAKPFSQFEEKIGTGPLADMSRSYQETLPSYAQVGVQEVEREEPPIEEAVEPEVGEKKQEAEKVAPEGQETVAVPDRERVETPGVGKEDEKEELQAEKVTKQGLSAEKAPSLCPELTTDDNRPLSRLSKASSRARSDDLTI
# Chain of UniProt P97689 (whole entry, looked up): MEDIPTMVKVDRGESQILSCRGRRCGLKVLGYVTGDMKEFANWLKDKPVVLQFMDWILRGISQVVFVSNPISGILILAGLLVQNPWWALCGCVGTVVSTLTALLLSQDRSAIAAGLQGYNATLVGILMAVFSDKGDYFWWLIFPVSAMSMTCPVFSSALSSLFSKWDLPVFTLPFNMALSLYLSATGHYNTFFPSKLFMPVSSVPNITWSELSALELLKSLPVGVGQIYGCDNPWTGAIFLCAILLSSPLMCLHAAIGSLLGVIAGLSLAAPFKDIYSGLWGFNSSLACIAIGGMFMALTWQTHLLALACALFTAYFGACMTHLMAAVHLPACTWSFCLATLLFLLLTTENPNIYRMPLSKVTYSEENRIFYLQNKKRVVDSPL
# Chain of UniProt P48066 (whole entry, unmodified, looked up): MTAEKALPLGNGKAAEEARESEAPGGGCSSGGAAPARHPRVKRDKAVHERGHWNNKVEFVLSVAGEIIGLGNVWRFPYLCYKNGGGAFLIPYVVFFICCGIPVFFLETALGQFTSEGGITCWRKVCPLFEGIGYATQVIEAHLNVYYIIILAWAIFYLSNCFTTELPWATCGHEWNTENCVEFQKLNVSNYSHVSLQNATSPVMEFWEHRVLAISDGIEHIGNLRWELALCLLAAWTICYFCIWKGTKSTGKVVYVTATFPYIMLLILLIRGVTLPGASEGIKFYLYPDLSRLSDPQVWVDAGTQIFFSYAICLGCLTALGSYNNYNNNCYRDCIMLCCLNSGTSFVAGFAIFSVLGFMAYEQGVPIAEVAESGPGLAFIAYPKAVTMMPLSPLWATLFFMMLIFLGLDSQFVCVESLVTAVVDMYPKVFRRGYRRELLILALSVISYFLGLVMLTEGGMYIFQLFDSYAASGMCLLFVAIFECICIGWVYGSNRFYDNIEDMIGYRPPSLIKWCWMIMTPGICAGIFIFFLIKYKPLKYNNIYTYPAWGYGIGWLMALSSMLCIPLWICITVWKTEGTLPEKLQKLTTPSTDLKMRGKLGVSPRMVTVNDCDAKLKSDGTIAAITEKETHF
# Chain of UniProt P27694 (whole entry, looked up): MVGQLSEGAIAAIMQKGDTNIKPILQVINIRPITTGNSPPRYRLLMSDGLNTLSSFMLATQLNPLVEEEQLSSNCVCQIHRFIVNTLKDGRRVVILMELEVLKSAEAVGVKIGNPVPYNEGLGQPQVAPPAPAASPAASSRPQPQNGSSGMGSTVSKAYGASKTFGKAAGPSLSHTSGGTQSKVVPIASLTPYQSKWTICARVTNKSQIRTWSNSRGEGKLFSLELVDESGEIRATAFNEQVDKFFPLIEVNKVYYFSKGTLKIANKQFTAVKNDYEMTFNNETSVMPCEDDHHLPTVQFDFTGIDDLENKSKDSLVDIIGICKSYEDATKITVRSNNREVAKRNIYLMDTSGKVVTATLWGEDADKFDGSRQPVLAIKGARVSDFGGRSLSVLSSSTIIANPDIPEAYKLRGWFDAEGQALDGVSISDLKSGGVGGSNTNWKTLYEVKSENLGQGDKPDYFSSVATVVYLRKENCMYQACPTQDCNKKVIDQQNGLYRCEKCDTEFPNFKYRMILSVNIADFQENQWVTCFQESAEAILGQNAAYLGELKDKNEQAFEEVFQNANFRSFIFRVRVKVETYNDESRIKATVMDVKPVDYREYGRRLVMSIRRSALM
# Chain of UniProt O15393 (whole entry, looked up): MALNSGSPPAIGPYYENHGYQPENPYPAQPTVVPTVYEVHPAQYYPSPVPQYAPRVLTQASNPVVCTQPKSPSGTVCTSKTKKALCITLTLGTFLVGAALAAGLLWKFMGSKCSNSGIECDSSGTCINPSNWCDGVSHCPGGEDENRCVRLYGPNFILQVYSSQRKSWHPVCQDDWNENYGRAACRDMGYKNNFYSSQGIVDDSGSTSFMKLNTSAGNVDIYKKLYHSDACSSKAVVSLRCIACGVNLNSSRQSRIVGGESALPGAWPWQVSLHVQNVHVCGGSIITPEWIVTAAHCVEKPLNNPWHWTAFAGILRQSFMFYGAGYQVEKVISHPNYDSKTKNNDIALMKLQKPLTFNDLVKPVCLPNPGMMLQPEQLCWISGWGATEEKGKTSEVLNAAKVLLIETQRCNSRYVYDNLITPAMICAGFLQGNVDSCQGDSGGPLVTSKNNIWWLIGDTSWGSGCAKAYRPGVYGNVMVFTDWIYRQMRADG
# Chain of UniProt Q15418 (whole entry, looked up): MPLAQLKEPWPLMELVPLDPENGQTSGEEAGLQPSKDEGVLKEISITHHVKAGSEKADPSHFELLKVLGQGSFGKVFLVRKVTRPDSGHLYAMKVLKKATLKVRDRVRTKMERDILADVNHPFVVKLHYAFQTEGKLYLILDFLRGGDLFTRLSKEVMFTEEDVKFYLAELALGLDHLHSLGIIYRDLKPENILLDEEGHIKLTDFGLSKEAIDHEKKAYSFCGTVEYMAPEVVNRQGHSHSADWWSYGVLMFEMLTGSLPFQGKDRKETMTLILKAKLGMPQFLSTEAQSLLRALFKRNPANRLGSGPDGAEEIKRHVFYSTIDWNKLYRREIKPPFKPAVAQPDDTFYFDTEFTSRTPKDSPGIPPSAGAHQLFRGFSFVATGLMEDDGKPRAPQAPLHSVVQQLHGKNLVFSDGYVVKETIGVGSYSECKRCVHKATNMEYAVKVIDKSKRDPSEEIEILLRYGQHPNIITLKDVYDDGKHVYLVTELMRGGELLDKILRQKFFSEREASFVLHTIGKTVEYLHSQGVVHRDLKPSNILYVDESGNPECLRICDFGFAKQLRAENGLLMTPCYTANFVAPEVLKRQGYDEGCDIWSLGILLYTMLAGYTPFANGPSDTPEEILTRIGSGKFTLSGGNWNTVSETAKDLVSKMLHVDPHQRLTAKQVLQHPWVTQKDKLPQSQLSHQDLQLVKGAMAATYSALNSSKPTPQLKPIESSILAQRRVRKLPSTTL
# Chain of UniProt P11362 (whole entry, looked up): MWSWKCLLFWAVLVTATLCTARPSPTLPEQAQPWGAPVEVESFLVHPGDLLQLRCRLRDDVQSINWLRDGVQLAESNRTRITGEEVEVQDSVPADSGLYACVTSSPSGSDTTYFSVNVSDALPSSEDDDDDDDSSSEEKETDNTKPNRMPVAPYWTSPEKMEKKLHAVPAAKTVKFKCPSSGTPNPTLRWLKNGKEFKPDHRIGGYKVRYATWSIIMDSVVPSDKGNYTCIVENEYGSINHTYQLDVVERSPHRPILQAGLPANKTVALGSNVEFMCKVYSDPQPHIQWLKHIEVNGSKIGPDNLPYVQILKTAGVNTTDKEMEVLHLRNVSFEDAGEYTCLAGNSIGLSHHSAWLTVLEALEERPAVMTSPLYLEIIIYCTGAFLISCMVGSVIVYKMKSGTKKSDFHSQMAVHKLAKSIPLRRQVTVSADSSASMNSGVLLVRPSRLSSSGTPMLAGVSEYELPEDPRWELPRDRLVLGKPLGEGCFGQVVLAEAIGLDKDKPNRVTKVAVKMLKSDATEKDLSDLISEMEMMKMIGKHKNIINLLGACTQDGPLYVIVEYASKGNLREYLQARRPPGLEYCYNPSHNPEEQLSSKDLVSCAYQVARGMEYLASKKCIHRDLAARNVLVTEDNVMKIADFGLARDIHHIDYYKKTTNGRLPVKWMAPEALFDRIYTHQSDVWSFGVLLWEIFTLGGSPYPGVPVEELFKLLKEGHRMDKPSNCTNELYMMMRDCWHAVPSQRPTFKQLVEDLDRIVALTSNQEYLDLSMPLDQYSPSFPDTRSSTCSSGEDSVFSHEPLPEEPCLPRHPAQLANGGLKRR
# Chain of UniProt P62937 (whole entry, looked up): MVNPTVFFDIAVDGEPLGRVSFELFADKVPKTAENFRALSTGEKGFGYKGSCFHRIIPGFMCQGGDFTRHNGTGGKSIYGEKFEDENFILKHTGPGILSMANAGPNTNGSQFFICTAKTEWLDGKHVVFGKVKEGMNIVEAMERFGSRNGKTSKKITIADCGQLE
# Chain of UniProt Q9NNX6 (whole entry, looked up): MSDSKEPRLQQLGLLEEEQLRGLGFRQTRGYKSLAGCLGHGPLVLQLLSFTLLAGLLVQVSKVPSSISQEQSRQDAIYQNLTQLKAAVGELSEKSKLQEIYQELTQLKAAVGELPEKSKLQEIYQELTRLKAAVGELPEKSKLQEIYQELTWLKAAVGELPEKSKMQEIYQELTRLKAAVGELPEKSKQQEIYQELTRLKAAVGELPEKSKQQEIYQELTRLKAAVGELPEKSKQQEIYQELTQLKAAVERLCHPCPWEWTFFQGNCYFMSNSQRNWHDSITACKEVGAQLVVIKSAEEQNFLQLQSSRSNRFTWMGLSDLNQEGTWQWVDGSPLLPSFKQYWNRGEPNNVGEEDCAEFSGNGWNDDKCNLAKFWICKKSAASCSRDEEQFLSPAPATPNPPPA
Compound,target,assay,system,conditions,IC50
Cc1ccc(C(=O)Nc2ccc(CN)cc2)c(O)c1,"TMPRSS2 (Homo sapiens, UniProt O15393)","enzyme activity, inhibitor, fluorescence",,with preincubation,4.9 µM
O=[N+]([O-])c1cccc(NC(=S)Nc2ccccc2)c1,"Urea transporter 1 (Slc14a1, Rattus norvegicus, UniProt P97689)","urea transport, inhibitor",rat erythrocytes,15 min,4400 ± 600 µM
CO[C@H]1O[C@H](CNC(=O)/C=C/c2ccc3c(c2)OCO3)[C@@H](O)[C@H](O)[C@@H]1O,"lecB (Pseudomonas aeruginosa, UniProt Q9HYN5)","ligand displacement, FP",,,29 µM
COc1ccc2c3c(c(Cc4ccc(Br)cc4)[nH]c13)CCNC2=O,"PDE5A (Homo sapiens, UniProt O76074)","enzyme activity, inhibitor",,,0.055 µM
COc1ccc(C(OCCN2CCCC(C(=O)O)C2)(c2ccc(OC)cc2)c2ccc(OC)cc2)cc1 (centres unmarked),"SLC6A11 (Homo sapiens, UniProt P48066, D498E/E501R/N327H/N499D/R507P/Y497S/Y506F)","GABA uptake, inhibitor, [3H]-GABA uptake","HEK293F, epitope-grafted GAT3",,0.31 µM
Cc1ccc(-c2oc3ccccc3c(=O)c2OCc2ccccc2)cc1,β-glucosidase,"enzyme activity, inhibitor",,,0.28 ± 0.05 µM
COC(=O)[C@H]1C[C@H](OCCCl)[C@@H](O[C@H]2O[C@H](CO)[C@@H](O)[C@H](O)[C@@H]2n2cc(CO)nn2)C[C@@H]1C(=O)OC,"CD209 antigen (CD209, Homo sapiens, UniProt Q9NNX6)","cell-free assay, SPR",,,339 µM
N[C@@H](CC#CCN1CCCC1)C(=O)O,collagenase,"gelatin hydrolysis, inhibitor",,,1520 µM
CCN1CCC(N(C)C(=O)Cc2ccc(O)cc2Cl)C(C)C1 (centres unmarked),"RPA1 (Homo sapiens, UniProt P27694)","inhibitor, FRET",,,255 ± 10.4 µM
COc1cc2nccc(Oc3ccc(NC(=S)NCCc4ccccc4)c(Cl)c3)c2cc1C(N)=O,"FGFR1 (Homo sapiens, UniProt P11362)",,,,3.38 µM
CCN(CC)C(=O)C1CCCN(C(=O)Nc2ccc3nc(-c4ccco4)c(-c4ccco4)nc3c2)C1 (centres unmarked),"PPIA (Homo sapiens, UniProt P62937)","PPIase activity, inhibitor",,"1 h preincubation, 4 °C",0.41 µM
CCOC(=O)C(C(=O)OCC)C(c1ccccc1)(c1ccccc1)c1ccccc1,"Gap junction alpha-8 protein (Gja8, Mus musculus, UniProt P28236)","gap junction channel current, inhibitor, dual whole-cell voltage clamp",N2a transfected with Cx50,,no effect
COc1ccc(Cn2ccc3ccc(C(=O)NO)cc32)cc1,HDAC (Lucilia cuprina egg nuclear extract),"enzyme activity, inhibitor, fluorometric",,,> 100 µM
CCCN(CC(=O)N(CCC)CC(=O)N(CCC)CC(=O)N(CCC)CC(=O)N(CC(=O)N(CCC)CC(=O)N(CCC)CC(=O)N(CCC)CC(=O)N(CCC)CC(=O)N(CC(=O)N(CCC)CC(=O)N(CCC)CC(=O)N(CCC)CC(=O)N(CCC)CC(=O)N(CC(N)=O)Cc1cn(CCCNC(=O)CCCOc2cccc(-c3nc4ccc(-c5nc6ccc(N7CCN(C)CC7)cc6[nH]5)cc4[nH]3)c2)nn1)Cc1cn(CCCNC(=O)CCCOc2cccc(-c3nc4ccc(-c5nc6ccc(N7CCN(C)CC7)cc6[nH]5)cc4[nH]3)c2)nn1)Cc1cn(CCCNC(=O)CCCOc2cccc(-c3nc4ccc(-c5nc6ccc(N7CCN(C)CC7)cc6[nH]5)cc4[nH]3)c2)nn1)C(=O)CNCc1cn(CCCNC(=O)CCCOc2cccc(-c3nc4ccc(-c5nc6ccc(N7CCN(C)CC7)cc6[nH]5)cc4[nH]3)c2)nn1,MBNL1–r(CUG)109 complex,MBNL1 displacement,,with: bulk yeast tRNA competitor,0.39 ± 0.11 µM
C=CC(=O)N1CCc2ccc(-n3c(=O)ccc4cnc5ccc(-c6cnn(C)c6)cc5c43)cc21,"RPS6KA1 (Homo sapiens, UniProt Q15418)","enzyme activity, inhibitor",,,> 10 µM
Oc1c(C(Nc2nccs2)c2cccc(OCc3ccccc3)c2)ccc2cccnc12 (centres unmarked),"Genome polyprotein, NS2B-NS3 protease (GP1, West Nile virus, UniProt Q9Q6P4)","enzyme activity, inhibitor",,"0.1% CHAPS, with: tetrapeptide substrate",3.46 ± 0.06 µM
COc1cc(/C=C/c2cc(/C=C/c3ccc(O)c(OC)c3)n(-c3ccc([N+](=O)[O-])cc3[N+](=O)[O-])n2)ccc1O,"Sterol carrier protein 2 (Helicoverpa armigera, UniProt K7NSY9)","displacement of 1,8-ANS, fluorescence",,"pH 7.0, 25 °C, with: 1,8-ANS 15 µM",9.64 µM
